Results of several laboratories.
Parts stem from different laboratories: compare values within a part only.
UniProt P42681, sequence (whole entry, looked up): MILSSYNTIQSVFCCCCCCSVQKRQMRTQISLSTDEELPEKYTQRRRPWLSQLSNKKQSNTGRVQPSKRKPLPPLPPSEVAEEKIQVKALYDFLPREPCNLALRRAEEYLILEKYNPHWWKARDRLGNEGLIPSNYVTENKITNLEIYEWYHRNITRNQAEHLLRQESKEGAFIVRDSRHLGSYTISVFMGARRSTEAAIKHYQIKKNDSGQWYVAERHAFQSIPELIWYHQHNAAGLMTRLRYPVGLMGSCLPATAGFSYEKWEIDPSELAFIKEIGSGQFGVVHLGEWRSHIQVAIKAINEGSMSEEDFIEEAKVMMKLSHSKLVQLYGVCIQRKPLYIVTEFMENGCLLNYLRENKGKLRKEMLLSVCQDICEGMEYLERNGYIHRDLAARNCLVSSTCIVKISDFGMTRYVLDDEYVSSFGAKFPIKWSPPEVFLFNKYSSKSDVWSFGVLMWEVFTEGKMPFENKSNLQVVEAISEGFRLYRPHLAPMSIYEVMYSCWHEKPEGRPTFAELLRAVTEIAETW
UniProt Q15759, sequence (whole entry, looked up): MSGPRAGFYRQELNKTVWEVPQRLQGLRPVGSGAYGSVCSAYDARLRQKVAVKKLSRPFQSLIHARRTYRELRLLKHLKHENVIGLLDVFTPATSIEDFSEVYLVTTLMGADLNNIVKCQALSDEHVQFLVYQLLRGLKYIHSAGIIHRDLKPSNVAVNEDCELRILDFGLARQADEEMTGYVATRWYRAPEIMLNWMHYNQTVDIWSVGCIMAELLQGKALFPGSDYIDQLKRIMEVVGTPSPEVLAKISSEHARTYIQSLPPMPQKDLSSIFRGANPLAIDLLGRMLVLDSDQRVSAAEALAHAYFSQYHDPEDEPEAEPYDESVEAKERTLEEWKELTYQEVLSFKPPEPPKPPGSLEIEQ
UniProt P06493, sequence (whole entry, looked up): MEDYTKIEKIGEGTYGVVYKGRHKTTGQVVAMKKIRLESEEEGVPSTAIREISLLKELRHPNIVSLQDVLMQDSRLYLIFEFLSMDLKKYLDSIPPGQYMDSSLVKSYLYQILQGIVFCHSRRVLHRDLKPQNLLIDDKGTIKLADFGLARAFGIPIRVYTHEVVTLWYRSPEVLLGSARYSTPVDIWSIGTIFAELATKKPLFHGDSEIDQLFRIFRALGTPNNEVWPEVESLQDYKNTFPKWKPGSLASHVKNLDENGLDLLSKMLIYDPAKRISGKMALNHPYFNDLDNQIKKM
UniProt P31751, sequence (whole entry, looked up): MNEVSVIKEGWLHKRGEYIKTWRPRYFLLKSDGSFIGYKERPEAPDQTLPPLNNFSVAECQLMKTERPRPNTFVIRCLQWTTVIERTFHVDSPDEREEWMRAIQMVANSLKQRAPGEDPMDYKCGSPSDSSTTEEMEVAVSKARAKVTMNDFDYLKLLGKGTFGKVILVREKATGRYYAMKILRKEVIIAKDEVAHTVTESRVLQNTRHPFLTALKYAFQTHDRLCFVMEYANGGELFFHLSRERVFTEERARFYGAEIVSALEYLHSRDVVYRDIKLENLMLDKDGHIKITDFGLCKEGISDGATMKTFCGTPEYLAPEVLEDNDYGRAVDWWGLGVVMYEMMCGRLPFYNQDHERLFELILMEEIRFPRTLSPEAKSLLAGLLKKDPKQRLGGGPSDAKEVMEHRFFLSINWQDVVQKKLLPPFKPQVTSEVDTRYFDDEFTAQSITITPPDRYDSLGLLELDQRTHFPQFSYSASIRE
UniProt P28482, sequence (whole entry, looked up): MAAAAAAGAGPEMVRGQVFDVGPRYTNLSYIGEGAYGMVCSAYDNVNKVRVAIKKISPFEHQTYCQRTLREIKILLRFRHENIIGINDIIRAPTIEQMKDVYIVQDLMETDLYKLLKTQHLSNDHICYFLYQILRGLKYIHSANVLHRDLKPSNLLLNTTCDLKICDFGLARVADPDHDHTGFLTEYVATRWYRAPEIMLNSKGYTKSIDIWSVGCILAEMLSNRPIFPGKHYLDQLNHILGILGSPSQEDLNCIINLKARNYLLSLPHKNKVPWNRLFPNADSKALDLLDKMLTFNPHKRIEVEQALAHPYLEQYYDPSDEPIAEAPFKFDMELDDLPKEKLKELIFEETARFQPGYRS
UniProt Q96L34, sequence (whole entry, looked up): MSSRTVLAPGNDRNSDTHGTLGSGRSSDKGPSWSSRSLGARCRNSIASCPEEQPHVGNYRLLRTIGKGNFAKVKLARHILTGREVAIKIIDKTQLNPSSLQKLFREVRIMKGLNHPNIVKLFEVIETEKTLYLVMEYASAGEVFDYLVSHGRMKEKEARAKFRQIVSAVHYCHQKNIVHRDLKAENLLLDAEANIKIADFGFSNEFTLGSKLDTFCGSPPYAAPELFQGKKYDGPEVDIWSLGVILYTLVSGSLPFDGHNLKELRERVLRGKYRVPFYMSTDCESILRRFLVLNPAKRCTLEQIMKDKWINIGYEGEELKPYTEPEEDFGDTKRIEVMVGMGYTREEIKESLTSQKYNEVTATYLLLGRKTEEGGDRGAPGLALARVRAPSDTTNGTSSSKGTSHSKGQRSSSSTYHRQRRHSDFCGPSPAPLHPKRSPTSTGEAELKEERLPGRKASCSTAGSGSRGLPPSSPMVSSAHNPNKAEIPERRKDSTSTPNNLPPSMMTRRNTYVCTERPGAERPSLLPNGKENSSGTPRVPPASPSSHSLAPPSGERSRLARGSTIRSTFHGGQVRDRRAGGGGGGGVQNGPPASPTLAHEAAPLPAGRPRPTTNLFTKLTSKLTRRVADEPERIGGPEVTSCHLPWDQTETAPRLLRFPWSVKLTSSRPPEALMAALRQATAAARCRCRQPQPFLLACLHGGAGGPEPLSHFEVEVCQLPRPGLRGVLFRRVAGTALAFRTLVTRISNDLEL
UniProt Q8N568, sequence (whole entry, looked up): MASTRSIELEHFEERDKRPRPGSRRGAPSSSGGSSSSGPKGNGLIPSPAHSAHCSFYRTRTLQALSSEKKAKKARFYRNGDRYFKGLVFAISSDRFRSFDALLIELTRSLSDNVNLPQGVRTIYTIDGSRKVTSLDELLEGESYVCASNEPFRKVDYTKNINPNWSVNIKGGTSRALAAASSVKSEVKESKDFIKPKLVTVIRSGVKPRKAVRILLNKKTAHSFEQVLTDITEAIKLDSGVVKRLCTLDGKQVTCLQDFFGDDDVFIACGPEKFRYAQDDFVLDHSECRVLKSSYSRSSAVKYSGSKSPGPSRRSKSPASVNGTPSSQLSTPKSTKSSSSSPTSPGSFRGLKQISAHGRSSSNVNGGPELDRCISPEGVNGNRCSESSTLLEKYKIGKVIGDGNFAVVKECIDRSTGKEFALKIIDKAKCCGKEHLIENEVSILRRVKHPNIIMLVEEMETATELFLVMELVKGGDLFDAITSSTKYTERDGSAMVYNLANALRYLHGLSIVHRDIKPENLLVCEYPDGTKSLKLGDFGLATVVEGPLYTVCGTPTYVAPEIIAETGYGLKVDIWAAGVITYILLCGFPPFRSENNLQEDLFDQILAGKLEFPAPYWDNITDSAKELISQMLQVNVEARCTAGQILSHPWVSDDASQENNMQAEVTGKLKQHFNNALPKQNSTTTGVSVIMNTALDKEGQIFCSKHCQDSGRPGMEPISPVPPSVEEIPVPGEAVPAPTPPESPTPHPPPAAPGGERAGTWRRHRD
UniProt Q6P2M8, sequence (whole entry, looked up): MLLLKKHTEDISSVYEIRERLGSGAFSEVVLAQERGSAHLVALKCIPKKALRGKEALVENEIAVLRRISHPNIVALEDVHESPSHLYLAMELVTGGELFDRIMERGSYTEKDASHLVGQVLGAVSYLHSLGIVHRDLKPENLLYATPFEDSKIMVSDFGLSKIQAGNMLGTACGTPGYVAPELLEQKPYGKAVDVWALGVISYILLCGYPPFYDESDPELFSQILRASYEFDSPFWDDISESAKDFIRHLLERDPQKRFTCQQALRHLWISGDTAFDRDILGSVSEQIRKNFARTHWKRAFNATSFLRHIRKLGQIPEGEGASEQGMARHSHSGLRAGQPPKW

Block 1 — read-out: enzyme activity; mode: inhibitor; tested at: 10 µM; endpoint: inhibition
Target: Calcium/calmodulin-dependent protein kinase type II subunit alpha (CAMK2A, Homo sapiens, UniProt Q9UQM7)
UniProt Q9UQM7, sequence (whole entry, looked up): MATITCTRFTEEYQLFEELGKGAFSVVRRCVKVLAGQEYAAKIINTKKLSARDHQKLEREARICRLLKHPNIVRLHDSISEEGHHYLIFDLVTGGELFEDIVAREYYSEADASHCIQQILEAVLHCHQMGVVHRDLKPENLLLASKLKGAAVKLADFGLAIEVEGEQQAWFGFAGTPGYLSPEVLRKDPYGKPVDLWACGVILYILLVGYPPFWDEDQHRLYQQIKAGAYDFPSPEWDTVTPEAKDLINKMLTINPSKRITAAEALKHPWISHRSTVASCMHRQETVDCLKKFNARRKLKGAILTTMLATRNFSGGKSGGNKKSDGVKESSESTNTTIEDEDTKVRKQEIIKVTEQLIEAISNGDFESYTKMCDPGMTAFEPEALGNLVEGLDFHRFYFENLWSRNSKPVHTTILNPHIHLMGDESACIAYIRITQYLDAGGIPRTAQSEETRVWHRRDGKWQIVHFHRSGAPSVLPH
Structure (SMILES) = C=CN1CCCC1=O; value = -1%
Structure (SMILES) = NC(=O)N1CCC(CC(=O)N2CCC([C@H]3c4ncc(Br)cc4CCc4cc(Cl)cc(Br)c43)CC2)CC1; value = 11%
Structure (SMILES) = C=C1C(=O)O[C@@]23[C@H]1CC[C@@H](C)[C@@H]2CC[C@@]1(C)O[C@@H]31; value = 39%
Structure (SMILES) = COC(=O)c1ccccc1O[C@@H]1O[C@H](CO[C@@H]2OC[C@@H](O)[C@H](O)[C@H]2O)[C@@H](O)[C@H](O)[C@H]1O; value = -2%
Structure (SMILES) = CC(=O)OCC1=C(C(=O)O)N2C(=O)[C@@H](NC(=O)CSc3ccncc3)[C@H]2SC1; value = -4%
Structure (SMILES) = O=c1c(O[C@@H]2O[C@H](CO)[C@@H](O)[C@H](O)[C@H]2O)c(-c2ccc(O)c(O)c2)oc2cc(O[C@@H]3O[C@H](CO[C@@H]4O[C@H](CO)[C@@H](O)[C@H](O)[C@H]4O)[C@@H](O)[C@H](O)[C@H]3O)cc(O)c12; value = -3%
Structure (SMILES) = C[C@@H](CC[C@@]1(O)O[C@H]2C[C@H]3[C@@H]4CC[C@@H]5C[C@@H](O[C@@H]6O[C@H](CO)[C@H](O)[C@H](O)[C@H]6O[C@@H]6O[C@H](CO)[C@@H](O)[C@H](O)[C@H]6O)CC[C@]5(C)[C@H]4CC[C@]3(C)[C@H]2[C@@H]1C)CO[C@@H]1O[C@H](CO)[C@@H](O)[C@H](O)[C@H]1O; value = -5%

Block 2 — organism: Plasmodium berghei; mode: inhibitor; cell line: Huh-7; strain: liver stage; tested at: 10 µM; time: 24 h; relative to: untreated control; endpoint: infection rate
Compound = CCOC(=O)Nc1nc2ccccc2[nH]1; value = 64.2%
Compound = CC1Cc2ccccc2N1NC(=O)c1ccc(Cl)c(S(N)(=O)=O)c1 (stereo not shown); value = 112%
Compound = C#C[C@]1(OC(C)=O)CC[C@H]2[C@@H]3CCC4=C[C@@H](OC(C)=O)CC[C@@H]4[C@H]3CC[C@@]21C; value = 89.7%
Compound = CS(=O)(=O)c1ccc([C@@H](O)[C@@H](CF)NC(=O)C(Cl)Cl)cc1; value = 91.8%
Compound = Cc1oncc1C(=O)Nc1ccc(C(F)(F)F)cc1; value = 103%
Compound = CN1CCC(=C2c3ccccc3CC(=O)c3sccc32)CC1; value = 74.5%

Block 3 — read-out: binding; technique: radioligand binding; tested at: 10 µM; endpoint: inhibition
Target: Alpha-1B adrenergic receptor (ADRA1B, Homo sapiens, UniProt P35368)
UniProt P35368, sequence (whole entry, looked up): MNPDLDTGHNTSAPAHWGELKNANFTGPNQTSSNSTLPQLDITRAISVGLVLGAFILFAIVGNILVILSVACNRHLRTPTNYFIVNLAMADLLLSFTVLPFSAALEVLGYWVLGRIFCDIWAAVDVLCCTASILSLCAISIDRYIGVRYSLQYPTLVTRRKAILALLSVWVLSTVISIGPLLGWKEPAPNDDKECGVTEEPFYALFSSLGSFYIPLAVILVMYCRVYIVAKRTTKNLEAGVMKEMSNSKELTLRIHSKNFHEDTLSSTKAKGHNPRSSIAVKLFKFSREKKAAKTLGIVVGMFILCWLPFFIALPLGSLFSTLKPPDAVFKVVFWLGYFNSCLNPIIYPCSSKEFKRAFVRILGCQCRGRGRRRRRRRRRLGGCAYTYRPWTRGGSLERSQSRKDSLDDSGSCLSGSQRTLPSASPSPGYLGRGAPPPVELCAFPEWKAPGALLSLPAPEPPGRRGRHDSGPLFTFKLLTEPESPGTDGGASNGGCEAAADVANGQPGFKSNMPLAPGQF
SMILES = CC1=C(C#N)C(c2ccc3c(c2)c(NC(=O)c2ccccc2C)nn3C)C(C#N)=C(C)N1; value = -4.61%
SMILES = Cc1c[nH]c2nccc(Oc3c(F)cc(Nc4cc(Cl)nc(N)n4)cc3F)c12; value = 17%
SMILES = C[C@@]1(Cc2ccc(C#N)cc2)C(=O)N(c2cc(Cl)cc(Cl)c2)c2ncc(C(=O)NC3(c4nc(C5CCC5)no4)CC3)n21; value = 23.8%
SMILES = O=C(Nc1cnc(Oc2ccc(F)cc2)nc1)N1CCc2ncccc2[C@@H]1c1ccc(F)cc1; value = -4.4%
SMILES = COc1cc(-c2cn(C3CCc4ccccc4N(CC(F)(F)F)C3=O)nn2)ccc1-n1ccc(C)n1 (stereo not shown); value = -31.6%
SMILES = COc1nc2ccc([C@@](O)(c3ccccc3)C3CCN(C(C)=O)CC3)cc2c(Cl)c1Cc1ccc(-n2cccn2)cc1; value = -4.69%
SMILES = CC(C)(O)c1cncc(-c2nc3ccc(F)cc3n2C2CC2)c1; value = 23.8%
SMILES = Cc1nc(Cc2cccc(C(F)(F)F)c2)sc1-c1ccc(C(N)=O)nc1; value = 24.6%
SMILES = C[C@@H]1CN(c2cc(-c3nn(C)c4ccc(OC5(C)CC5)cc34)ncn2)C[C@H](C)O1; value = 3.72%
SMILES = CC(=O)N1CCC(c2ccc(C(=O)NC(=N)N)cc2C(F)(F)F)CC1; value = -15.6%

Block 4 — SMILES: O=C1C(Cl)=C(N2C(=O)CCC2=O)C(=O)c2ccccc21; read-out: enzyme activity; mode: inhibitor; tested at: 0.5 µM; relative to: control; endpoint: remaining activity
target = PNCK (Homo sapiens, UniProt Q6P2M8); value = 100%
target = MARK4 (Homo sapiens, UniProt Q96L34); value = 99.6%
target = NEK3 (Homo sapiens, UniProt P51956); value = 102%
target = GRK4 (Homo sapiens, UniProt P32298); value = 97.6%
target = TXK (Homo sapiens, UniProt P42681); value = 95.5%
target = MINK1 (Homo sapiens, UniProt Q8N4C8); value = 95.6%
target = MAPK11 (Homo sapiens, UniProt Q15759); value = 105%
target = MAPK1 (Homo sapiens, UniProt P28482); value = 73.6%
target = TLK2 (Homo sapiens, UniProt Q86UE8); value = 117%
target = PRKG2 (Homo sapiens, UniProt Q13237); value = 114%
target = AKT2 (Homo sapiens, UniProt P31751); value = 96.3%
target = ROCK1 (Homo sapiens, UniProt Q13464); value = 106%
target = Cyclin-dependent kinase 1, with cyclin A (CDK1, Homo sapiens, UniProt P06493); value = 99.8%
target = DCLK2 (Homo sapiens, UniProt Q8N568); value = 100%

Repeated from above (block 3):
SMILES = C[C@@H]1CN(c2cc(-c3nn(C)c4ccc(OC5(C)CC5)cc34)ncn2)C[C@H](C)O1; value = 3.72%
SMILES = Cc1c[nH]c2nccc(Oc3c(F)cc(Nc4cc(Cl)nc(N)n4)cc3F)c12; value = 17%
SMILES = COc1cc(-c2cn(C3CCc4ccccc4N(CC(F)(F)F)C3=O)nn2)ccc1-n1ccc(C)n1 (stereo not shown); value = -31.6%
SMILES = O=C(Nc1cnc(Oc2ccc(F)cc2)nc1)N1CCc2ncccc2[C@@H]1c1ccc(F)cc1; value = -4.4%
SMILES = CC(=O)N1CCC(c2ccc(C(=O)NC(=N)N)cc2C(F)(F)F)CC1; value = -15.6%
